# Results pooled from the literature.
# Every numbered part comes from another study and shows a few of its results, in no order. Positions count from the first letter of the parent shown.
# Sequence of UniProt P08588 (whole entry, looked up): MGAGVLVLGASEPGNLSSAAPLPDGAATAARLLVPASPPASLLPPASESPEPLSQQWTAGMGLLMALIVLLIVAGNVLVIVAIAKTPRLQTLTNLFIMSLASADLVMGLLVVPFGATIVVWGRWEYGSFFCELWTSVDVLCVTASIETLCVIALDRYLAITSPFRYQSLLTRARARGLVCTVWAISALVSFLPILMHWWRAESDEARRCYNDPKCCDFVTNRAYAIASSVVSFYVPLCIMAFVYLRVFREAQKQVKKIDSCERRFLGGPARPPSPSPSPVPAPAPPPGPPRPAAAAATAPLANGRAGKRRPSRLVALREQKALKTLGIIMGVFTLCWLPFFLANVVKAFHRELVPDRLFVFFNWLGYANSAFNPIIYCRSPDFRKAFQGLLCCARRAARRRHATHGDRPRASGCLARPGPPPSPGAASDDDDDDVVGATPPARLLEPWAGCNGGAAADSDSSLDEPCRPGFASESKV

# Block 1
# Target: Hepatocyte nuclear factor 3-alpha (Foxa1, Mus musculus, UniProt P35582, residues 1-468, full length assumed)
# Sequence of UniProt P35582 (whole entry, looked up): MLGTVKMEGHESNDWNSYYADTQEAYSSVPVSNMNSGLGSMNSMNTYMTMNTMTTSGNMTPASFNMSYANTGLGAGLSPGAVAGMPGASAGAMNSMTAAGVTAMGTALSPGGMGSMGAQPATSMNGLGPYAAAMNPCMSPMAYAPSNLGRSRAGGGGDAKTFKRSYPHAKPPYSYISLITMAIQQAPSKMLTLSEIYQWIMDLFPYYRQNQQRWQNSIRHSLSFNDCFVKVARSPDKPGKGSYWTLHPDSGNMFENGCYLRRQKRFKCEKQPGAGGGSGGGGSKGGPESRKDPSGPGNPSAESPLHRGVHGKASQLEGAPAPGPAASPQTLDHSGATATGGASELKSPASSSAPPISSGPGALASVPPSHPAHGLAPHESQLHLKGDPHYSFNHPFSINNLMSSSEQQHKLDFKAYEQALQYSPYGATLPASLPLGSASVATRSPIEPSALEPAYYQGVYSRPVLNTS
# Technique: EMSA with sequencing
# Molecule type: double-stranded DNA, one strand shown
# Matrix: in vitro
# Concentration: 10 and 20 nM
# Setting: whole designed probe, mean of two concentrations, ends assumed
# Baseline: negative control set to 0
# Reading: higher = stronger binding
# All sequences stand within: GTGAGCGGTGCCCATTGATGGGGAAC … TTTCACTGGGATCGTGGGGAC
Strand,normalised bound fraction [ratio]
TTTTCATTTTCAGATTTGCTATACTTGAAACCACTTGTTCCACTGTAAAATGTAATCCTTTATGAATTTTATATTTATTGATTCAAAGGTTCTATGTTTACATTGCCATGCCATGTCTAACAATAAGGTCCACTTGTAAGTAGATTTATTTGTTATTGGTAACAATAATCTCACACAATTTTGATGTATTCAG,0.474
ATCTTCCCCCTCTTCCTTGCCCCACCAGCTCACCTTCCCGGGTTATTTGCAGATAGGAAAATAAATAAAGCCGGCCTTACTTGAACCTCTTCTGGCGCAAACTGCTGTTTGCTCTGGATGAATCATGGTCCTTTGGCGACGCCAGGCTCCGGGAGAGCAAAGCACCGTGTCAGGGCCATGATCCGGGGTGGCC,0.343
CATGTACAAACAAAATATGGGTTGTGTAATTTCAGTAATTCCATGTACAAGTTAAACACATTGCACAATTCTGATATTTGCATTTAAAATGTCGTAAACATGAATGCTAACAATCTTTTTTTTTTTTCCTGAGACGGAGTCTTGCTCTATCGCCCAGGCTGGAGTGCAGCGGCACAATCTCTGCTTACTGCCA,0.29
CTAGTTCCAGTCTTAGCATGACAATTTCTTCCTGCAACGTACTATTTTCATGCAAGAGGTCTTTTTCTTTCTTATAACTAAGAGAAAGCTAAGTAAACAAAGGGAACTTTTAGTTAGCACTCAATAGATTGATATATCATGATTTCTTCTGAAATTAAAAAATAACATCTGTATTTGTATAATGAAAGAATCC,0.514
GTCATTTATTTCATGTTGTCCTGAGATTGGATCTAAACTTTGAGCTCCTAATCATCGCTCAGATTGTGTGGCCTCGTAAGATTGTGCGTAATAAGTAAACAAGCATCTGTACACTTGTTAACTTAATGAGCTTCTGTATGTGACACTTTAAGCCTTTTTAAAAATTAAGTGCTGGGCTATGCTTGGTGTCTCA,0.417

# Block 2
# Target: Histone acetyltransferase KAT6A, winged helix 2, GST fusion (KAT6A, Homo sapiens, UniProt Q92794, residues 85-181)
# Technique: protein binding microarray
# Molecule type: double-stranded DNA, one strand shown
# Matrix: in vitro
# Concentration: not given
# Setting: 8-mer, flanks averaged, mean of 2 arrays, mostly near background
# Baseline: not given
# Reading: higher = stronger binding
# Construct (chain): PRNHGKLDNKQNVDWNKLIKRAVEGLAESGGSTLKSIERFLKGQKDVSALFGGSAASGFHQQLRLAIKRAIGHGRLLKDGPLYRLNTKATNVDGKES
Strand,E-score
AGTGTAAG,-0.191
ATACGACG,0.0176
AGCCCTAG,-0.0648
GCGCGCGA,0.218
ATCAGGTG,-0.0542
ATTCAAGC,0.143
CGGGCTGC,0.236
CATCGTTC,-0.00809

# Single results of other studies
# P1: viral docking peptide; CKVKRKLFGSENI; partner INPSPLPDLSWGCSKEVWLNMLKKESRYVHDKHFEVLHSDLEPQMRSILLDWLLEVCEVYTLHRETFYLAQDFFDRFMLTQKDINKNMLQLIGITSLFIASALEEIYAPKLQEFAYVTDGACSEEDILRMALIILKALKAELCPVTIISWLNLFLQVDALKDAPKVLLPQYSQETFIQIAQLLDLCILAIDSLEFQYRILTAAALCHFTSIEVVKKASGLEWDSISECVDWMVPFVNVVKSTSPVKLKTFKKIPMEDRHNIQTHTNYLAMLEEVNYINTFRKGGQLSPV
Molecule,target or system,assay,system,setting,scale,quantity,value
CNCC(O)c1ccc(O)c(OC)c1 (stereo not shown),"Beta-1 adrenergic receptor (ADRB1, Homo sapiens, UniProt P08588)",antagonist,,,,IC50,≥ 100 µM
P1 S10A,"CCNE2, cyclin fold, Cln2 fusion (human)","yeast growth competition, sequencing",yeast,strong parent motif,"baseline: not given, higher = stronger binding",normalised enrichment score,3.19
COc1ccc2c(c1)[C@]13CCCC[C@@H]1[C@H](C2)N(C)CC3,Plasmodium berghei,inhibitor,"Huh-7, GFP-expressing sporozoites, liver stage","10 µM, 24 h",baseline: untreated control,infection rate,104%
